Assay results collected from several papers.
Every numbered part comes from another study and shows a few of its results, in no order. Several values in a cell are separate wells, animals, samples, runs or records.
Sequence of UniProt P00519 (whole entry, unmodified, looked up): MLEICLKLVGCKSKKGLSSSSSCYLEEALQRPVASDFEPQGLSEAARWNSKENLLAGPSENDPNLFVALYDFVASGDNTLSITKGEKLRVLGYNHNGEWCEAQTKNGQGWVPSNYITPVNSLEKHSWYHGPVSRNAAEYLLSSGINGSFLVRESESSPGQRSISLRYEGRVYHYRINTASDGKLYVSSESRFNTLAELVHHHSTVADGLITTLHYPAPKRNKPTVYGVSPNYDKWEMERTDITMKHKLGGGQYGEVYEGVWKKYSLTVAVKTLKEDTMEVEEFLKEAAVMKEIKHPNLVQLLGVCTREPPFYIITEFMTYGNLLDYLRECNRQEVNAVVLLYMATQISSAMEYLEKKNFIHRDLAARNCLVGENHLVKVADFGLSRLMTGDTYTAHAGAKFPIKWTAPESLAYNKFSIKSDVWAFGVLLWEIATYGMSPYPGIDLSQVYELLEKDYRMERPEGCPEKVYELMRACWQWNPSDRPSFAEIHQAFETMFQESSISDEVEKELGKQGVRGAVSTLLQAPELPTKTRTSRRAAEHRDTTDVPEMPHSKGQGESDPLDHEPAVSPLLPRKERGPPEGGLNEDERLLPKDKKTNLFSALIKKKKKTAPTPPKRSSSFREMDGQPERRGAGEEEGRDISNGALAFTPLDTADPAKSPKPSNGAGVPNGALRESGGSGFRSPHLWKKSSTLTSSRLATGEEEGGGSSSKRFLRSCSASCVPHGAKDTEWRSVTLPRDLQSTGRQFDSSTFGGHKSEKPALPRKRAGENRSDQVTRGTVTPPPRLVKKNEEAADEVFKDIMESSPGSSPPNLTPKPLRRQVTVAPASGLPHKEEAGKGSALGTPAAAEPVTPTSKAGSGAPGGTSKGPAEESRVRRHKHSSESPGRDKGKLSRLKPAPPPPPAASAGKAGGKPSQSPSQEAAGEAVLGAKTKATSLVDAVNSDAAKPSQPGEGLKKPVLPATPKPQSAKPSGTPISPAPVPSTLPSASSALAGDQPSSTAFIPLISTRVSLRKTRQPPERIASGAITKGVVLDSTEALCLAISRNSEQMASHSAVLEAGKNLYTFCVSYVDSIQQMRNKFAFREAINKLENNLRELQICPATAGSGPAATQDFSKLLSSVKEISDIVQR

Study 1 — effect on: enzyme activity; action: inhibitor; tested at: 0.5 µM; reference: control
Target: Tyrosine-protein kinase BTK (BTK, Homo sapiens, UniProt Q06187)
Sequence of UniProt Q06187 (whole entry, looked up): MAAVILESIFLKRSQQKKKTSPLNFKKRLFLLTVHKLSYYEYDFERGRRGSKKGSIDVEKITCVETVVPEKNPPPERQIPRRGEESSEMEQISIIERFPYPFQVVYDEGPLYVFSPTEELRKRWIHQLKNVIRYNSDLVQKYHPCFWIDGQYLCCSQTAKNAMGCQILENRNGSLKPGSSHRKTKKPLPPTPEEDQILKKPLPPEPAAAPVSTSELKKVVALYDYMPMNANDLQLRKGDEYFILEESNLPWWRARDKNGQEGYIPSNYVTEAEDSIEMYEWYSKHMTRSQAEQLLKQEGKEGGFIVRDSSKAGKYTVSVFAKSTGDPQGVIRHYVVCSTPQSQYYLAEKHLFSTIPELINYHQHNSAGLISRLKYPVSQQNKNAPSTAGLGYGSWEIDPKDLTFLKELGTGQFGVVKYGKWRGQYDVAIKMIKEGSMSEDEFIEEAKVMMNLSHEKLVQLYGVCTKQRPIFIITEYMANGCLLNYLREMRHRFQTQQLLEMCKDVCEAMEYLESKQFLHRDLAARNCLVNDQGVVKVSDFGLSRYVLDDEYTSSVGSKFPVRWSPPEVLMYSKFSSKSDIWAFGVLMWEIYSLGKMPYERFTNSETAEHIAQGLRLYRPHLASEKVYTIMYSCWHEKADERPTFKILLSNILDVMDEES
| SMILES | remaining activity [%] |
| --- | --- |
| O=c1c2ccccc2[nH]c(=S)n1CCN1CCC(=C(c2ccc(F)cc2)c2ccc(F)cc2)CC1 | 105 |
| O=C1NC(=O)C(c2cn(CCCO)c3ncccc23)=C1c1cnccn1 | 93.7 |
| CCOC(=O)c1c(C)[nH]c(/C=C2\C(=O)Nc3ccccc32)c1C | 95.6 |
| Cc1ccc(Nc2nccc(N(C)c3ccc4c(C)n(C)nc4c3)n2)cc1S(N)(=O)=O | 78.8 |
| CNC(=O)c1cc(Oc2ccc(NC(=O)Nc3ccc(Cl)c(C(F)(F)F)c3)cc2)ccn1 | 102 |
| CN(C)c1ccc(C=C2C(=O)Nc3ccccc32)cc1 | 104 |
| NCCNc1ncc(C(N)=O)c(Nc2cccc(C(F)(F)F)c2)n1 | 82.3 |
| Nc1[nH]nc2nc3ccccc3nc12 | 93.9 |
| O=C1NC(=O)C(c2cn(CCCn3ccnc3)c3ccccc23)=C1Nc1ccccc1 | 105 |
| CC(C)[C@H](CO)Nc1nc(Nc2cc(N)cc(Cl)c2)c2ncn(C(C)C)c2n1 | 33 |
| O=S(=O)(c1cccc2cnccc12)N1CCCNCC1 | 96.5 |
| Cc1ccc(NC(=O)c2ccc(CN3CCN(C)CC3)cc2)cc1Nc1nc(-c2cccnc2)cs1 | 99.6 |
| COc1ccc(CNC(=O)Nc2ncc([N+](=O)[O-])s2)cc1 | 102 |
| C#Cc1cccc(Nc2ncnc3cc(OCCOC)c(OCCOC)cc23)c1 | 86.2 |
| O=C(Nc1cccc(Nc2cc(Nc3cccc(C(F)(F)F)c3)ncn2)c1)C1CC1 | 101 |

Study 2 — cell line: HuT78; tested at: 2 µM; time: 48 h; reference: untreated
| Compound | viability |
| --- | --- |
| Cc1[nH]c(/C=C2\C(=O)Nc3ccccc32)c(C)c1CCC(=O)O | 143% |
| COc1ccc(CNC(=O)Nc2ncc([N+](=O)[O-])s2)cc1 | 112% |
| NC(=O)c1cccc(-c2cc(Nc3ccc(OC(F)(F)F)cc3)ncn2)c1 | 115% |
| Cc1cc(F)c(Nc2ncnc3cc(OCc4ccccc4)ccc23)cc1O | 110% |
| CC(C)Nc1cc(-c2c[nH]c(C(=O)N[C@H](CO)c3cccc(Cl)c3)c2)c(Cl)cn1 | 88% |
| CN1CC[C@H](c2c(O)cc(O)c3c(=O)cc(-c4ccccc4Cl)oc23)[C@H](O)C1 | 19.3% |
| NC1(c2ccc(-c3nc4ccn5c(=O)[nH]nc5c4cc3-c3ccccc3)cc2)CCC1 | 97.9% |
| CN(c1ccccc1CNc1nc(Nc2ccc3c(c2)CC(=O)N3)ncc1C(F)(F)F)S(C)(=O)=O | 62.8% |

Study 3 — host: IFN-γ knockout mice; sample: plasma; route: oral; dose: dose not given
Compound: CNC(=O)c1ccc(-c2cnn3ccc(C(=O)N(CCC(=O)OCC(=O)N(C)C)c4ccc(Cl)cc4)cc23)cc1
| time | plasma concentration |
| --- | --- |
| 7 h | not detected |
| 1 h | not detected |
| 4 h | not detected |

Other studies, line by line
| SMILES | tested on | test | test system | setting | scale | quantity | value |
| --- | --- | --- | --- | --- | --- | --- | --- |
| CCC(=O)N[C@H]1CC[C@@H](C(=O)N(C)c2ccc(-c3nc4ccccc4o3)cc2)C1 | patient-derived normal-adjacent epithelium organoids |  |  | 1 µM | reference: DMSO control | viability | 52% |
| CCOc1ccc(Nc2c3c(nc4ccccc24)CCC3)cc1 | Leishmania donovani | parasite killing | DD8, intracellular amastigotes | 40 µM, 48 h |  | inhibition | 100% |
| N#CC1(c2ccccn2)CCN(Cc2cc(C(=O)O)c(=O)n3ccccc23)CC1 | Tyrosine-protein kinase ABL1, non-phosphorylated (ABL1, Homo sapiens, UniProt P00519, F317I) | binding, competition with immobilised ligand |  | 1 µM |  | remaining binding | 65% |
| CN(N=O)C(=O)N[C@@H]1[C@@H](O)[C@H](O)[C@@H](CO)O[C@@H]1O |  |  | mice, STZ diabetic neuropathy | dose not given, 3 days after STZ |  | blood glucose | 505 mg/dL and 325 mg/dL and 398 mg/dL and 298 mg/dL and 403 mg/dL |

Some of these lines once more (study 1):
| SMILES | remaining activity [%] |
| --- | --- |
| O=c1c2ccccc2[nH]c(=S)n1CCN1CCC(=C(c2ccc(F)cc2)c2ccc(F)cc2)CC1 | 105 |
| CN(C)c1ccc(C=C2C(=O)Nc3ccccc32)cc1 | 104 |
| Cc1ccc(Nc2nccc(N(C)c3ccc4c(C)n(C)nc4c3)n2)cc1S(N)(=O)=O | 78.8 |
